Measured values of several laboratories.
Lines come from different studies, so protocols differ.

Structure (SMILES) | system | conditions | measurement | value
O=c1c(Br)c2oc3c(CN(Cc4ccccn4)Cc4cnccn4)c(O)c(Cl)cc3nc-2c2ccccc12 | aqueous buffer | pH 7.0, Zn2+-saturated | excitation maximum | 530 nm
CC1=CC(C)=[N+]2C1=C(CCCC(=O)O)c1c(C)cc(C)n1[B-]2(F)F | acetonitrile/water | – | excitation wavelength | 496 nm
O=c1c(Br)c2oc3c(CN(Cc4ccccn4)Cc4cnccn4)c(O)ccc3nc-2c2ccccc12 | aqueous buffer | pH 7.0, Zn2+-saturated | excitation maximum | 525 nm
CC1=CC(C)=[N+]2C1=C(CCCC(=O)NCCCCCC(=O)NCCCCCC(=O)NCCCC[C@H](NC(=O)N[C@@H](CCC(=O)O)C(=O)O)C(=O)O)c1c(C)cc(C)n1[B-]2(F)F | acetonitrile/water | – | excitation wavelength | 496 nm
CC1=CC(C)=[N+]2C1=C(c1ccc(C[P+](C3CCCCC3)(C3CCCCC3)C3CCCCC3)cc1)c1c(C)cc(C)n1[B-]2(F)F | PBS | 10 µM, pH 7.4, 298 K | excitation maximum | 497 nm
NCCC(=O)N1Cc2ccccc2-c2c(nnn2-c2cn(C3OC(CO)C(O)C3O)c(=O)[nH]c2=O)-c2ccccc21 (mixture of isomers) | methanol | – | excitation maximum | 312 nm
Cc1nc(C#N)ccc1N | phosphate buffer with BSA | pH 8, 37 °C, 1% DMSO | excitation maximum | 276 nm
CC1=CC(C)=[N+]2C1=C(CCCC(=O)NCCCC[C@H](NC(=O)N[C@@H](CCC(=O)O)C(=O)O)C(=O)O)c1c(C)cc(C)n1[B-]2(F)F | acetonitrile/water | – | excitation wavelength | 496 nm
COCCOCCOc1ccc([P+](Cc2ccc(C3=C4C(C)=CC(C)=[N+]4[B-](F)(F)n4c(C)cc(C)c43)cc2)(c2ccc(OCCOCCOC)cc2)c2ccc(OCCOCCOC)cc2)cc1 | PBS | 10 µM, pH 7.4, 298 K | excitation maximum | 497 nm
Nc1ncnc2c1nc(-n1nnc3c1CCC1C(CO)C1CC3)n2C1CC(O)C(CO)O1 (mixture of isomers) | methanol | – | excitation maximum | 290 nm
CC1=CC(C)=[N+]2C1=C(c1ccc(C[P+](c3ccccc3)(c3ccccc3)c3ccccc3)cc1)c1c(C)cc(C)n1[B-]2(F)F | PBS | 10 µM, pH 7.4, 298 K | excitation maximum | 497 nm
O=c1[nH]c(=O)n(C2OC(CO)C(O)C2O)cc1-n1nnc2c1CCC1C(CO)C1CC2 (mixture of isomers) | methanol | – | excitation maximum | 276 nm

Excerpt of the above:
Structure (SMILES) | system | conditions | measurement | value
Cc1nc(C#N)ccc1N | phosphate buffer with BSA | pH 8, 37 °C, 1% DMSO | excitation maximum | 276 nm
